Assay results collected from several papers.
Each line is one published result; not all experiments were run side by side. Values joined by “and” are separate records of one study, mostly repeats; a detail may differ. ± marks the error that the study gave.

C=CC(=O)Nc1cc(Nc2nccc(Nc3cc(Cl)c(F)cc3C(C)(C)O)n2)c(OC)cc1N1CC[C@@H](N(C)C)C1
patients with pneumonia (human patients; oral, 200 mg, treatment-emergent adverse events): 6.3%

CO[C@H]1C[C@@H]2CC[C@@H](C)[C@@](O)(O2)C(=O)C(=O)N2CCCC[C@H]2C(=O)O[C@H]([C@H](C)C[C@@H]2CC[C@@H](OC(=O)NCCOCCOCCOCCOCCOCCOCCOCCOCCC(=O)N3CCc4cc(Cn5nc(-c6ccc7oc(N)nc7c6)c6c(N)ncnc65)ccc4C3)[C@H](OC)C2)C[C@@H](O)[C@H](C)/C=C(\C)[C@@H](O)[C@@H](OC)C(=O)[C@H](C)C[C@H](C)/C=C/C=C/C=C/1C
incidence of Mucositis TRAE (patients with advanced solid tumours; intravenous, dose not given, any grade): 49.1%

Clc1nc[n]([Au][PH](c2ccccc2)(c2ccccc2)c2ccccc2)c1Cl
maximum tolerated dose (NCG mouse; intraperitoneal, single dose, 25 days observation): 5 mg/kg

NCCCC[C@@H]1NC(=O)[C@@H](Cc2c[nH]c3ccccc23)NC(=O)[C@H](c2ccccc2)NC(=O)[C@@H]2C[C@@H](OC(=O)NCCN)CN2C(=O)[C@H](Cc2ccccc2)NC(=O)[C@H](Cc2ccc(OCc3ccccc3)cc2)NC1=O
QTcI change from baseline (healthy volunteers; subcutaneous, 1950 µg twice daily, day 5, 0.25 h): -4 ms

C[C@]1(O)C[C@@](N)(c2ccc(-c3nc4n(c3-c3ccccc3)COc3ccncc3-4)cc2)C1
patients with Hyperglycemia TEAE (human, advanced or metastatic solid tumours; once daily, dose escalation total, any grade): 22.2%

CN[C@@H](C)C(=O)N[C@H]1CN(S(=O)(=O)c2cccc(S(=O)(=O)N3CC[C@H]4CC[C@@H](C(=O)NC(c5ccccc5)c5ccccc5)N4C(=O)[C@@H](NC(=O)[C@H](C)NC)C3)c2)CC[C@H]2CC[C@@H](C(=O)NC(c3ccccc3)c3ccccc3)N2C1=O
treatment-related pruritus incidence (patients with advanced solid tumours; 0.3 mg, phase I monotherapy): 0%

CC(C)C[C@H](NC(=O)[C@H](CCCCN)NC(=O)OCC1c2ccccc2-c2ccccc21)C(=O)N[C@H](C(=O)N[C@@H](Cc1ccccc1)C(=O)N[C@@H](Cc1ccccc1)C(=O)N[C@@H](CCCCN)C(=O)NCC(=O)N[C@@H](Cc1ccccc1)C(=O)N[C@@H](C)C(=O)N[C@@H](Cc1c[nH]c2ccccc12)C(=O)N[C@@H](CC(N)=O)C(=O)N[C@H](C(=O)N[C@H]1CSSC[C@@H](C(=O)N[C@@H](Cc2c[nH]cn2)C(=O)N[C@@H](CCCNC(=N)N)C(=O)N[C@@H](CCCNC(=N)N)C(=O)N[C@@H](C)C(=O)N[C@@H](CC(N)=O)C(N)=O)NC(=O)[C@H](C(C)C)NC(=O)[C@H](CCCNC(=N)N)NC(=O)[C@H](C(C)C)NC(=O)CNC(=O)[C@H](CC(N)=O)NC(=O)[C@H](CCCNC(=N)N)NC(=O)[C@H](Cc2ccc(O)cc2)NC(=O)[C@H](C(C)C)NC1=O)C(C)C)C(C)C
remaining peptide (HPLC; mouse kidney homogenate; 2560 µM, 2.00 h, 37 °C, 50 mg/mL tissue): 86.9%

COc1ccnc(C(=O)N[C@H]2COC(=O)[C@H](Cc3ccccc3)[C@@H](OC(=O)C(C)C)[C@H](C)OC2=O)c1OCOC(=O)C(C)C
share of total radioactive residue (tomato, fruit; foliar, dose not given): ≤ 95 % TRR

CC(C)CC(=O)OC[C@H]1O[C@@](C#N)(c2ccc3c(N)ncnn23)[C@H](O)[C@@H]1O
remaining compound (Dogs plasma; 5 µM, 30 min): 97.4 ± 0.513%

[2H]C([2H])([18F])[C@]([2H])(N)C(=O)O
tissue uptake (PET; athymic nude mice, U-87 MG, tumor; dose not given, 30 min post-injection): 1.62 ± 0.09 %ID/cc

CN1CCN(S(=O)(=O)c2cc([N+](=O)[O-])ccc2N(CCOS(C)(=O)=O)CCOS(C)(=O)=O)CC1
calcium (naive NOD/SCID mice, pooled blood; intraperitoneal, 18.8 mg/kg, week 4): 2.7 mmol/L

[O-][S+]1CCc2nc(N3CCC(c4ncc(Cl)cn4)CC3)nc(NC3(CO)CCC3)c21 (stereo not shown)
adverse event incidence (measured: Headache; healthy male humans; 48 mg single dose): 50%

CCCCCCCCCCCCCCCC(=O)N[C@@H](CCC(=O)NCCCC[C@H](NC(=O)[C@H](CC(=O)O)NC(=O)[C@H](CO)NC(=O)[C@@H](NC(=O)[C@H](Cc1ccccc1)NC(=O)[C@@H](NC(=O)CNC(=O)[C@H](CCC(N)=O)NC(=O)[C@H](CO)NC(=O)[C@@H](N)Cc1c[nH]cn1)[C@@H](C)O)[C@@H](C)O)C(=O)N[C@@H](CO)C(=O)N[C@@H](CCC(=O)O)C(=O)N[C@@H](Cc1ccc(O)cc1)C(=O)N[C@@H](CC(C)C)C(=O)N[C@@H](CC(=O)O)C(=O)N[C@@H](CO)C(=O)N[C@@H](CCC(=O)O)C(=O)N[C@@H](CCCNC(=N)N)C(=O)N[C@@H](C)C(=O)N[C@@H](CCCNC(=N)N)C(=O)N[C@@H](CC(=O)O)C(=O)N[C@@H](Cc1ccccc1)C(=O)N[C@H](C(=O)N[C@@H](C)C(=O)N[C@@H](Cc1c[nH]c2ccccc12)C(=O)N[C@@H](CC(C)C)C(=O)N[C@@H](CCC(=O)O)C(=O)N[C@@H](C)C(=O)NCC(=O)NCC(=O)O)C(C)C)C(=O)O
treatment-related adverse events (measured: Dizziness; humans CrCl 30 to 45 mL/min; subcutaneous, 100 µg single dose): 0%

O=C1Nc2cc3[nH]nc(-c4ccncc4)c3cc2CN1Cc1ccccc1
patients with vitreous floaters (CTCAE v4.03; human, relapsed or refractory advanced solid tumours; intravenous, 3.6 mg/kg): 67%

CC(=O)c1c(C)c2cnc(Nc3ccc(C4CCN(CCS(C)(=O)=O)CC4)cn3)nc2n(C2CCCC2)c1=O
Cmax (human, dose-escalation trial, plasma; oral, 50 mg twice daily, day 1, single dose): 89.6 ng/mL

Oc1ccc(Cl)c(-c2cc(Cl)c(Cl)cc2Cl)c1Cl
enantiomeric fraction (enantioselective gas chromatography; racemized sample; column temperature 150 °C): 0.5

C#C[C@]1(CO)O[C@@H](n2cnc3c(N)nc(F)nc32)C[C@@H]1O
NOAEL (monkey; oral, 29 days): 20 mg/kg

COc1ncccc1-c1cnn2ccc(N3CCN(C(=O)OC(C)C)CC3)nc12
drug concentration (rat, thermal hyperalgesia model, plasma; oral, 10 mg/kg, 180 min): 810 nM

Cn1cc(-c2nc(N[C@@H]3CCCC[C@@H]3N)c(F)c3c2C(=O)NC3)cn1
hemorrhagic adverse events (measured: Hematochezia; patients with relapsed or refractory AML; oral, 120 mg once daily): 25%

N=C(N)NCCC[C@@H](NC(=O)[C@@H](N)Cc1ccccc1)C(=O)N[C@@H](Cc1ccccc1)C(=O)N[C@@H](CCCCN)C(N)=O
mean amount excreted in urine (LC-MS; human; 25 mg, 23.83 h): 445000 ng

COc1ccc2nc3cc(Cl)ccc3c(Nc3cc(CN4CCCC4)c(O)c(CN4CCCC4)c3)c2n1
red cell distribution width (CV) (mouse, blood; intraperitoneal, 28 mg/kg): 13.6%

O=C(O)CCC(CP(=O)(O)O)C(=O)O (stereo not shown)
AUC(0-t) (NSG mice, C4-2 xenograft, salivary glands; intravenous, 3 mg/kg, 0.25 to 6 h): 2.7 ± 0.4 nmol·h/g

S=c1oc(-c2ccccc2)nn1CN1CCN(Cc2ccccc2)CC1
serum ALT (Wistar rat female; oral, 100 mg/kg, acute toxicity OECD 423): 40 ± 4.4 U/L

CC[C@H](C)CCCCC(=O)N[C@@H](CCN)C(=O)N[C@H](C(=O)N[C@@H](CCN)C(=O)N[C@H]1CCNC(=O)[C@H]([C@@H](C)O)NC(=O)[C@H](CCN)NC(=O)[C@H](CCN)NC(=O)[C@H](CC(C)C)NC(=O)[C@@H](CC(C)C)NC(=O)[C@H](CCN)NC1=O)[C@@H](C)O
AUC extrapolated percentage (rat; subcutaneous, 10 mg/kg): 0.0486 ± 0.0019%

COc1cccc(Oc2ccccc2NC(=O)CNC(=O)c2cccc3ccccc23)c1
basophils (esterase-deficient SCID mice, male, blood; oral, 15 mg/kg/day, 14 days, toxicity study; baseline: white cells): 2.8% and 0%

CC[C@H](C)[C@H](NC(=O)[C@H](CCCCN)NC(=O)[C@H](CCC(=O)O)NC(=O)[C@H](CCCCN)NC(=O)[C@H](CO)NC(=O)[C@H](CCCCN)NC(=O)[C@H](CCCNC(=N)N)NC(=O)[C@H](Cc1ccccc1)NC(=O)[C@H](Cc1ccccc1)NC(=O)[C@H](CC(=O)O)NC(=O)CNC(=O)[C@H](CC(C)C)NC(=O)[C@@H](N)CC(C)C)C(=O)NCC(=O)N[C@@H](CCCCN)C(=O)N[C@@H](CCC(=O)O)C(=O)N[C@@H](Cc1ccccc1)C(=O)N[C@@H](CCCCN)C(=O)N[C@@H](CCCNC(=N)N)C(=O)N[C@H](C(=O)N[C@H](C(=O)N[C@@H](CCC(N)=O)C(=O)N[C@@H](CCCNC(=N)N)C(=O)N[C@H](C(=O)N[C@@H](CCCCN)C(=O)N[C@@H](CC(=O)O)C(=O)N[C@@H](Cc1ccccc1)C(=O)N[C@@H](CC(C)C)C(=O)N[C@@H](CCCNC(=N)N)C(=O)N[C@@H](CC(N)=O)C(=O)N[C@@H](CC(C)C)C(=O)N[C@H](C(=O)N1CCC[C@H]1C(=O)N[C@@H](CCCNC(=N)N)C(=O)N[C@H](C(=O)N[C@@H](CCC(=O)O)C(=O)N[C@@H](CO)C(=O)O)[C@@H](C)O)C(C)C)[C@@H](C)CC)C(C)C)[C@@H](C)CC
remaining intact peptide (LC-MS; buffer with trypsin; 40 µM, 540 min, pH 7.5, 37 °C; baseline: 0 h): 0.632% and 0.903% and 1.21%

C[C@@H](NC(=O)N1C(=O)[C@H](Cc2ccnc(N)c2)[C@H]1C(=O)O)C1CCCCC1
adverse events grade 3 or above (healthy Chinese adult volunteers; continuous intravenous infusion, dose not given, 5.0 days, CTCAE 5.0, all doses): 0%

O=S(=O)(Nc1ccccc1)c1ccc(NC(=S)Nc2ccccc2)cc1
relative organ weight (female mice, small intestine; oral, 5 mg/kg daily 14 days; baseline: body weight): 3.36%

CCCCCOc1ccc(-c2ccc(-c3ccc(C(=O)N[C@H]4C[C@@H](O)[C@@H](OCC[N+](C)(C)C)NC(=O)[C@@H]5[C@@H](O)[C@@H](C)CN5C(=O)[C@H]([C@@H](C)O)NC(=O)[C@H]([C@H](O)[C@@H](O)c5ccc(O)cc5)NC(=O)[C@@H]5C[C@@H](O)CN5C(=O)[C@H]([C@@H](C)O)NC4=O)cc3)cc2)cc1
bilirubin (adult ICU patients, mITT, serum; dose not given, day 30): 14.6 µmol/L

Cn1cncc1-c1c(F)cncc1NC(=O)c1c(N)nn2cc(F)cnc12
grade ≥3 hyperkalaemia incidence (human patients; oral, 130 mg once daily): 11%

C[C@H]1COCCN1c1nc(NCc2cccnc2C(F)(F)F)c2cccnc2n1
heart rate change (conscious rat; intravenous, 30 mg/kg; baseline: control): 9.3%

C[C@]1(CO)Cc2ncn(-c3ccc(C#N)c(Cl)c3)c2C(=O)O1
Cmax ratio fed over fasted (healthy humans; oral, 10 mg; baseline: fasted): 77.5%

C[C@H]1CN(C(=O)CC#N)[C@]12CCN(c1ncnc3[nH]ccc13)C2
AUC at NOAEL (rat female; oral, 10 mg/kg repeated daily, 6 months, repeated-dose toxicity study): 4290 ng·h/mL

COc1cc2c(Oc3ccc4[nH]c(C)cc4c3F)ccnc2cc1OCC1(N)CC1
sinus bradycardia incidence (paediatric refractory sarcoma patients; 8 mg): 0%

O=C(Nc1ccccc1)C1CCN(C(=O)Oc2cccnc2)CC1
subjects with Photophobia adverse event (adverse event reporting; healthy women; oral, 100 mg, 9 days): 0%

C=CC(=O)N1CC[C@H](n2nc(C#Cc3cc(OC)cc(OC)c3)c3c(N)ncnc32)C1
AST increased, any grade (human patients; oral, dose not given, QD regimen, adverse drug reaction, together with: sevelamer hydrochloride): 18.2%

CCc1ccc(CC/C=C/c2ccc3c(c2)C(=O)CC3)cc1
Eosinophil percentage (Sprague-Dawley rat, male; oral, 30 mg/kg/day, 14 days): 0.5%
